# Earlier results as cited in several papers.
# Sequence of UniProt Q16620 (whole entry, looked up): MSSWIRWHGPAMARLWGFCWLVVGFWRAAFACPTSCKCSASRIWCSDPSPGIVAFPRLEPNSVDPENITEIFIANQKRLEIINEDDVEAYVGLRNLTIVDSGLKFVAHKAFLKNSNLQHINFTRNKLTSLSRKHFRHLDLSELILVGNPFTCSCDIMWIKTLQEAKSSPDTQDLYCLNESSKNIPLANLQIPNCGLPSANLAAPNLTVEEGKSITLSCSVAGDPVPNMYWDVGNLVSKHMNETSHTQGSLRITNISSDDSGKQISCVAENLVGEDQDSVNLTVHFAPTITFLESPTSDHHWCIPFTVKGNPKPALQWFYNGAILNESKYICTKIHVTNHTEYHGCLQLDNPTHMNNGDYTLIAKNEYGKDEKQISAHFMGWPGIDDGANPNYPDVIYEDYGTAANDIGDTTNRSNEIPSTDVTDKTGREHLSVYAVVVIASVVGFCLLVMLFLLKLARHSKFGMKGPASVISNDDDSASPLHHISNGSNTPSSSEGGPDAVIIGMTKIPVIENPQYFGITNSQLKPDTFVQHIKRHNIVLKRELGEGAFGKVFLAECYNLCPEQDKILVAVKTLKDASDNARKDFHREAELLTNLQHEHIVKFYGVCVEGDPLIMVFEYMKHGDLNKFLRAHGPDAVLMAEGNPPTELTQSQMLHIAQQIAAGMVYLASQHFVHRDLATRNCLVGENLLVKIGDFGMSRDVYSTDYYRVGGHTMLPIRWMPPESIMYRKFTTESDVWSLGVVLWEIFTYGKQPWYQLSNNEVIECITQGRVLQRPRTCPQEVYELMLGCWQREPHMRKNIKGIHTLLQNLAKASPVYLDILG
Compound,tested on,assay,test system,setting,how to read,measurement,result
Oc1ccc(-c2nc(-c3ccc(OC4CCCC4)cc3)no2)cc1,Staphylococcus aureus,,NRS100,,,MIC,2 to 4 µg/mL
CO/N=C(\C(=O)N[C@@H]1C(=O)N2C(C(=O)O)=C(CSC(=O)c3ccco3)CS[C@H]12)c1csc(N)n1,Staphylococcus aureus,,,,,MIC,2 µg/mL
Oc1ccc(-c2nc(-c3ccc(OC4CCCC4)cc3)no2)cc1,Staphylococcus aureus,,NRS119 linezolid-resistant,,,MIC,1 to 2 µg/mL
CCOC(=O)C(c1ccc2ccccc2c1O)N1CCOCC1 (centres unmarked),Staphylococcus aureus,efflux pump inhibition,ATCC 25923,50 µM,relative to: untreated cells,relative fluorescence index,-0.58
C[C@@H](O)[C@H]1C(=O)N2C(C(=O)O)=C(S[C@@H]3CN[C@H](C(=O)N(C)C)C3)[C@H](C)[C@H]12,Staphylococcus aureus,,MSSA,,,MIC90,≤ 0.12 mg/L
Nc1cc(C(F)(F)F)c(-c2nc(N3CCOCC3)nc(N3CCOCC3)n2)cn1,"NTRK2 (Homo sapiens, UniProt Q16620)",enzyme activity,,10 µM,relative to: untreated,remaining activity,84%
NC[C@H]1O[C@H](O[C@H]2[C@H](O)[C@@H](O[C@H]3O[C@H](CO)[C@@H](O)[C@H](N)[C@H]3O)[C@H](N)C[C@@H]2N)[C@H](O)[C@@H](O)[C@@H]1O,Staphylococcus aureus,,,,,MIC,8 µg/mL
C=C(NC(=O)c1csc(-c2nc3c(cc2OC2OC(C)C(OC)C(OC)C2O)-c2nc(cs2)C(=O)N[C@@H]([C@@H](C)O)C(=O)N/C(=C(\C)OC)c2nc(cs2)C(=O)N[C@@H]2c4nc(c(OC5OC(C)C(OC6CCC(OC7CC(O)C(O)C(C)O7)C(C)O6)C(OC)C5OC)s4)C(=O)N[C@@H](COC(=O)c4c5c6c(cccc6n4O)COC(=O)C(O)C2OC5)c2nc-3cs2)n1)C(N)=O (some centres unmarked),Staphylococcus aureus,,MRSA,,,MIC,0.025 µg/mL
c1ccc2c(c1)CCNC2c1c[nH]c2ccccc12 (centres unmarked),Staphylococcus aureus,efflux pump inhibition,ATCC 25923,50 µM,relative to: untreated cells,relative fluorescence index,-0.18
Cc1cc(C)nc(NS(=O)(=O)c2ccc(N)cc2)n1,Staphylococcus aureus,,,,,MIC,8 µg/mL
O=C(O)c1[nH]c2ccccc2c1C1NCCc2ccccc21 (centres unmarked),Staphylococcus aureus,efflux pump inhibition,ATCC 25923,50 µM,relative to: untreated cells,relative fluorescence index,-0.14
COc1ccc(CCc2cc(OC)c(OC)c(OC)c2)cc1O,Staphylococcus aureus,,,,,MIC,512 µg/mL
CC1(C)S[C@@H]2[C@H](NC(=O)[C@H](N)c3ccccc3)C(=O)N2[C@H]1C(=O)O,Staphylococcus aureus,,,,,MIC,0.02 to 25 µg/mL
C[C@H]1c2cccc(O)c2C(=O)C2=C(O)[C@]3(O)C(=O)C(C(N)=O)=C(O)[C@@H](N(C)C)[C@@H]3[C@@H](O)[C@@H]21,Staphylococcus aureus,,,,,MIC,32 µg/mL
COc1cc2c(cc1OC)C(c1c[nH]c3ncccc13)NCC2 (centres unmarked),Staphylococcus aureus,efflux pump inhibition,ATCC 25923,50 µM,relative to: untreated cells,relative fluorescence index,0.3
CS(=O)(=O)c1ccc([C@@H](O)[C@@H](CF)NC(=O)C(Cl)Cl)cc1,Staphylococcus aureus,,,,,MIC,64 µg/mL
O=C1O[C@H]2[C@@H]3OC(=O)c4cc(O)c(O)c(O)c4-c4c(O)c(O)c5oc(=O)c6c(c(O)c(O)c7oc(=O)c4c5c76)-c4c(cc(O)c(O)c4O)C(=O)OC[C@H]3OC(O)[C@@H]2OC(=O)c2cc(O)c(O)c(O)c2-c2c1cc(O)c(O)c2O (mixture of isomers),Staphylococcus aureus,,,,,MIC,250 µg/mL
